Published values pooled from the literature.
Compare with care: the assays were run in different laboratories. Numbers after ± are the reported error.

For `C=Cc1c(C)c2cc3nc(c4c5[nH]c(cc6nc(cc1[nH]2)C(C)=C6CC)c(C)c5C(=O)C4)[C@@H](CCC(=O)NCC(=O)N1CCC[C@H]1C(=O)N[C@@H](CC(C)C)C(=O)NCC(=O)N[C@@H](Cc1ccccc1)C(=O)N[C@@H](CCCNC(=N)N)C(=O)N[C@H](C(=O)NCC(=O)N[C@@H](CCCCNC(=O)CCCN(C)c1ccc(/N=N/c2ccc4nc5ccc(N(CC)CC)cc5[n+](-c5ccccc5)c4c2)cc1)C(N)=O)C(C)C)[C@@H]3C`, the probe activation was 60% (Stromelysin-1 (MMP3, Homo sapiens, UniProt P08254); substrate; concentration not given, 24 h, 37 °C; relative to: proteinase K).
`CC(=O)N[C@H]1[C@@H](O[C@H](C)[C@H](NC(=O)[C@@H](NC(=O)CNC(=O)[C@@H](N)Cc2c[nH]cn2)C(C)C)C(=O)N[C@@H](CO)C(=O)N[C@@H](C)C(=O)N2CCC[C@H]2C(=O)N[C@@H](CC(=O)O)C(=O)N[C@H](C(=O)N[C@@H](CCCNC(=N)N)C(=O)N2CCC[C@H]2C(=O)N[C@@H](C)C(=O)N2CCC[C@H]2C(=O)NCC(=O)N[C@@H](CO)C(N)=O)[C@@H](C)O)O[C@H](CO)[C@H](O)[C@@H]1O[C@@H]1O[C@H](CO)[C@H](O)[C@H](O)[C@H]1O` gave a –TΔS of -3.5 kcal/mol (Galectin-3 (LGALS3, Homo sapiens, UniProt P17931); binding, isothermal titration calorimetry; full-length protein).
The EC50 of `CC(=O)N[C@H](Cc1ccc2ccccc2c1)C(=O)N[C@H](Cc1ccc(Cl)cc1)C(=O)N[C@H](Cc1cccnc1)C(=O)N[C@@H](CO)C(=O)N[C@@H](Cc1ccc[n+](C)c1)C(=O)N[C@H](CCCCNC(C)C)C(=O)N[C@@H](CC(C)C)C(=O)N[C@@H](CCCCNC(C)C)C(=O)N1CCC[C@H]1C(=O)N[C@H](C)C(N)=O` is reported as 4.86 µM (Gonadotropin-releasing hormone receptor III (Gallus gallus, UniProt Q5EFE0); inositol phosphate production, agonist; COS-7 transfected; 1 h).
`O=C(Nc1cnc(Cl)nc1)c1ccc(F)c(F)c1`: “maximal conductance increase” 175% (Potassium voltage-gated channel subfamily KQT member 4 (KCNQ4, Homo sapiens, UniProt P56696); two-electrode voltage clamp; 20 µM).
For `CCCN(CC(=O)N(CCC)CC(=O)N(CCC)CC(=O)N(CCC)CC(=O)N(CC(=O)N(CCC)CC(=O)N(CCC)CC(=O)N(CCC)CC(=O)N(CCC)CC(=O)N(CC(N)=O)Cc1cn(CCCNC(=O)CCCOc2cccc(-c3nc4ccc(-c5nc6ccc(N7CCN(C)CC7)cc6[nH]5)cc4[nH]3)c2)nn1)Cc1cn(CCCNC(=O)CCCOc2cccc(-c3nc4ccc(-c5nc6ccc(N7CCN(C)CC7)cc6[nH]5)cc4[nH]3)c2)nn1)C(=O)CNCc1cn(CCCNC(=O)CCCOc2cccc(-c3nc4ccc(-c5nc6ccc(N7CCN(C)CC7)cc6[nH]5)cc4[nH]3)c2)nn1`, the multivalent effect was 38 (MBNL1–r(CUG)109 complex; MBNL1 displacement; 0.65 pmol r(CUG)109; unit not given, with: yeast tRNA 3.7 µM; relative to: monomer 2 IC50 per module).
For `O=C(CCCCCCS)Nc1ccccc1`, the TΔS was 2.8 ± 0.3 kcal/mol (Histone deacetylase 8 (HDAC8, Homo sapiens, UniProt Q9BY41); ITC; Tris-HCl buffer; pH 7.5, 25 °C).
For `COC(=O)c1ccc(CNC(=O)[C@@H]2C[C@@H](O)CN2C(C)=O)cc1`, “binding free energy (ΔG)” read -4.88 ± 0.01 kcal/mol (von Hippel-Lindau disease tumor suppressor, with Elongin B/C (VHL, Homo sapiens, UniProt P40337); isothermal titration calorimetry; 25 °C).
`C=C1C(=O)O[C@@H]2[C@H]3C(CO)=CC(=O)C3=C(C)C[C@H](O)[C@@H]12` — result for “amide I band position”: 1640 cm⁻¹ (Alpha-glucosidase MAL12 (MAL12, Saccharomyces cerevisiae S288c, UniProt P53341); FT-IR; 65.22 µM).
`Cc1cccc(-c2nc(Nc3nc4ccccc4o3)ncc2C#N)c1` has a maximal response of 3.6 ± 1.1% (Metabotropic glutamate receptor 5 (Grm5, Rattus norvegicus, UniProt P31424); calcium mobilization, negative allosteric modulator; with: glutamate EC80; relative to: maximal glutamate response).
For `CNc1ccccc1C(=O)O[C@H]1C[C@H](n2cnc3c(N)ncnc32)O[C@@H]1COP(=O)(O)OP(=O)(O)O`, “∆H of ligand binding” read -7.6 ± 1.4 kcal/mol (Unconventional myosin-Va (Gallus gallus, UniProt Q02440, D297C/G292C/I296C/S293C/V295G); van't Hoff analysis; concentration not given, with: 10 mM Mg2+).
For `CCOCCNC(=O)N1CCC[C@H](c2n[nH]c(-c3ccccc3)n2)C1`, the apparent Vmax was 0.56 pmol HFC/min/pmol P450 (Aromatase (CYP19A1, Homo sapiens, UniProt P11511); enzyme activity, inhibitor, MFC to HFC conversion; 20 µM, with: MFC substrate).
With `CC(C)C[C@H](NC(=O)[C@H](N)Cc1ccc(O)cc1)C(=O)N(C)[C@@H](Cc1ccccc1)C(=O)N[C@@H](CCC(N)=O)C(=O)N1CCC[C@H]1C(=O)N[C@@H](CCC(N)=O)C(=O)N[C@@H](CCCNC(=N)N)C(=O)N[C@@H](Cc1ccccc1)C(N)=O` the stimulation was 231% (Neuropeptide FF receptor 2 (Homo sapiens, UniProt Q9Y5X5); agonist; 10 µM; relative to: maximal activation).
`Cn1ccc2c(N3CCN(CCCCOc4ccc5c(c4)NC(=O)CC5)CC3)cccc21`: “time to peak” 15 to 60 min (D(2) dopamine receptor, long isoform (DRD2, Homo sapiens, UniProt P14416); arrestin recruitment, BRET time course; human cells).

Repeated from above:
The EC50 of `CC(=O)N[C@H](Cc1ccc2ccccc2c1)C(=O)N[C@H](Cc1ccc(Cl)cc1)C(=O)N[C@H](Cc1cccnc1)C(=O)N[C@@H](CO)C(=O)N[C@@H](Cc1ccc[n+](C)c1)C(=O)N[C@H](CCCCNC(C)C)C(=O)N[C@@H](CC(C)C)C(=O)N[C@@H](CCCCNC(C)C)C(=O)N1CCC[C@H]1C(=O)N[C@H](C)C(N)=O` is reported as 4.86 µM (Gonadotropin-releasing hormone receptor III (Gallus gallus, UniProt Q5EFE0); inositol phosphate production, agonist; COS-7 transfected; 1 h).
